Published values pooled from the literature.
Parts stem from different laboratories: compare values within a part only. Positions count from the first letter of the parent shown.

Block 1
Target: Protein max, full length (MAX, Homo sapiens, UniProt P61244-2, residues 1-151)
Technique: protein-binding microarray
Form: double-stranded DNA, one strand shown
Matrix: in vitro
Concentration: not given
Setting: k-mer, scored over probes, only values ≥0.25
Reading: higher = stronger binding
`TGCCCACA` gave an E-score of 0.274.
`ATGCTGTC` gave an E-score of 0.307.
`AGCACGAG` has an E-score of 0.425.
`CGTGTGCA` has an E-score of 0.419.
With `CACACTGC` the E-score was 0.259.
The E-score of `CGCCATGC` is reported as 0.407.
`ATACCACG` gave an E-score of 0.37.
`CAACATGC` gave an E-score of 0.355.
`CATGACAG` has an E-score of 0.272.
With `ACATGACC` the E-score was 0.328.
With `GCTAACAC` the E-score was 0.266.
With `GGCACGCC` the E-score was 0.346.
`CATGGGCG` gave an E-score of 0.328.
The E-score of `ACGCGCGA` is reported as 0.251.

Block 2
Target: CCNB2, cyclin fold, Cln2 fusion (human)
Technique: yeast growth competition, sequencing
Matrix: yeast
Setting: strong parent motif
Relative to: not given
Reading: higher = stronger binding
Starting sequence: BRCA2 docking peptide (human); PSIKRNLLNEFDR
Under “normalised enrichment score”, `PSVKRNLLNEFDR [I3V]` is recorded as 3.26.
For `PSIKRNLLKEFDR [N9K]`, “normalised enrichment score” read 3.73.
Under “normalised enrichment score”, `PSIKENLLNEFDR [R5E]` is recorded as -0.163.
Under “normalised enrichment score”, `PSIKRNLLNEFCR [D12C]` is recorded as 3.
For `PSIKRNLLNVFDR [E10V]`, “normalised enrichment score” read 0.436.
For `PSIKRNLLNEFDH [R13H]`, “normalised enrichment score” read 3.18.
Under “normalised enrichment score”, `PSIKRNWLNEFDR [L7W]` is recorded as -0.0952.
`SSIKRNLLNEFDR [P1S]` — result for “normalised enrichment score”: 3.64.
`PPIKRNLLNEFDR [S2P]` — result for “normalised enrichment score”: 3.5.
`PSIKRNLLNELDR [F11L]`: “normalised enrichment score” 1.37.
`PSIKRSLLNEFDR [N6S]`: “normalised enrichment score” 1.8.
`PSIKRNLLNEFVR [D12V]`: “normalised enrichment score” 3.3.
`PSIKRFLLNEFDR [N6F]` — result for “normalised enrichment score”: 0.935.
Under “normalised enrichment score”, `PSHKRNLLNEFDR [I3H]` is recorded as 0.658.
Under “normalised enrichment score”, `PSIKRNKLNEFDR [L7K]` is recorded as 0.246.
For `PSITRNLLNEFDR [K4T]`, “normalised enrichment score” read 1.54.
`PSIKRNLLNEFDY [R13Y]` — result for “normalised enrichment score”: 3.9.
`PSIKRNLLNEQDR [F11Q]` — result for “normalised enrichment score”: 0.16.

Block 3
Target: Histone acetyltransferase KAT6A, both winged helices, GST fusion (KAT6A, Homo sapiens, UniProt Q92794, residues 1-181)
Technique: protein binding microarray
Form: double-stranded DNA, one strand shown
Matrix: in vitro
Concentration: not given
Setting: 8-mer, flanks averaged, mean of 2 arrays, mostly near background
Relative to: not given
Reading: higher = stronger binding
Target sequence (chain): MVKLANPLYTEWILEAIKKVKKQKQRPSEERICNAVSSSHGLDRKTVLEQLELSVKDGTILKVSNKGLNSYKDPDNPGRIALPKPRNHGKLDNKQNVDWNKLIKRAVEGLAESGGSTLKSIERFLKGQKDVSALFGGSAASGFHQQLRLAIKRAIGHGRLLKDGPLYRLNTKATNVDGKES
`CATTCTAA` has an E-score of -0.157.
With `CAACTTTC` the E-score was -0.0398.
`GACGACGC` has an E-score of 0.189.
`AGCGCGTC` gave an E-score of 0.325.
The E-score of `ACGGGTCT` is reported as 0.146.
For `AGATGAGG`, the E-score was -0.288.
`AAGTGGGA` gave an E-score of -0.133.
With `ACTGAGTA` the E-score was -0.112.
The E-score of `GCTTCTCC` is reported as -0.0178.
For `TGGAACCA`, the E-score was 0.0373.
The E-score of `CCCAGGCA` is reported as -0.301.
`AGGCAGCC` gave an E-score of -0.112.
With `TAAAATAA` the E-score was -0.0567.
The E-score of `CGTTCCCA` is reported as -0.0327.
The E-score of `ACATCCAT` is reported as -0.208.
`CATTCGAC` gave an E-score of 0.0116.

Mixed results
The fold induction of `PhoQ, residues 284 288 289 292 302 303 ALVSVA` is reported as 29.4 (PhoP, residues 12 14 15 18 19 IQFRS (Escherichia coli, UniProt P23836); Sort-seq, measured: YFP reporter; E. coli; PhoQ-PhoP variant library, added: 10 µM Mg2+; relative to: high Mg2+ state, higher = stronger signaling).

For quick reference, copied from above (block 2):
`PPIKRNLLNEFDR [S2P]` — result for “normalised enrichment score”: 3.5.
Under “normalised enrichment score”, `PSIKRNWLNEFDR [L7W]` is recorded as -0.0952.
Under “normalised enrichment score”, `PSIKRNKLNEFDR [L7K]` is recorded as 0.246.
